Measured values from different studies.
Compare with care: the assays were run in different laboratories. ≈ marks a conversion by molar mass, not a printed value.
Organism: Acinetobacter baumannii

CC(C)C[C@H](NC(=O)[C@H](Cc1ccc(O)cc1)NC(=O)[C@@H]1CCCN1C(=O)[C@H](CCCNC(=N)N)NC(=O)[C@@H]1CCCN1C(=O)[C@H](CCCCN)NC(=O)[C@H](CC(=O)O)NC(=O)[C@@H]1CCCN1C(=O)[C@H](CCCNC(=N)N)NC(=O)C1(N)CCCCC1)C(=O)N1CCC[C@H]1C(=O)N[C@@H](CCCNC(=N)N)C(=O)N1CCC[C@H]1C(=O)N[C@@H](CCCNC(=N)N)C(=O)N1CCC[C@H]1C(=O)N1CCC[C@H]1C(=O)N[C@@H](CCCNC(=N)N)C(=O)N1CCC[C@H]1C(=O)N[C@H](C(=O)N[C@@H](CCCNC(=N)N)C(=O)N[C@@H](CSc1c(F)c(F)c(SC[C@H](NC(=O)[C@H](CCCNC(=N)N)NC(=O)[C@@H](NC(=O)[C@@H]2CCCN2C(=O)[C@H](CCCNC(=N)N)NC(=O)[C@@H]2CCCN2C(=O)[C@@H]2CCCN2C(=O)[C@H](CCCNC(=N)N)NC(=O)[C@@H]2CCCN2C(=O)[C@H](CCCNC(=N)N)NC(=O)[C@@H]2CCCN2C(=O)[C@H](CC(C)C)NC(=O)[C@H](Cc2ccc(O)cc2)NC(=O)[C@@H]2CCCN2C(=O)[C@H](CCCNC(=N)N)NC(=O)[C@@H]2CCCN2C(=O)[C@H](CCCCN)NC(=O)[C@H](CC(=O)O)NC(=O)[C@@H]2CCCN2C(=O)[C@H](CCCNC(=N)N)NC(=O)C2(N)CCCCC2)C(C)C)C(=O)NN)c(F)c1F)C(=O)NN)C(C)C
PI-positive bacteria (inner membrane permeabilization, PI/SYTO flow cytometry; concentration not given, 60 min, 37 °C): > 80%

CCn1c(-c2ccc(OC)cc2)c(-c2ccc(OC)cc2)n(CC)c1=[Se+][Au-][P+](CC)(CC)CC.[Cl-]
FIC index (bacterial growth, checkerboard microdilution; carbapenem-resistant; with: cefotaxime): 0.375

Oc1ccc(C(F)(F)F)cc1-c1nc2c(Cl)cc(Cl)cc2[nH]1
MIC of colistin (colistin potentiator; AB 1E4, colistin-resistant; 5 µM): 1 mg/L

O=c1c(O)ccc(Br)cc1O
MIC80 (multidrug-resistant): ≤ 30 µM

Oc1cc(C(F)(F)F)ccc1-c1nc2c(C(F)(F)F)cc(C(F)(F)F)cc2[nH]1
MIC of colistin (colistin potentiator; AB 1E4, colistin-resistant; 5 µM): 0.5 mg/L

CC[C@H](C)[C@H](NC(=O)[C@H](CCCCN)NC(=O)[C@@H](NC(=O)[C@H](CS)NC(=O)[C@H](CCCNC(=N)N)NC(=O)[C@H](CCCNC(=N)N)NC(=O)[C@H](CC(N)=O)NC(=O)[C@H](CCCNC(=N)N)NC(=O)[C@H](CS)NC(=O)[C@@H](NC(=O)[C@H](CO)NC(=O)[C@@H](NC(=O)[C@H](CS)NC(=O)[C@H](CCCCN)NC(=O)[C@@H](N)CCCNC(=N)N)[C@@H](C)CC)C(C)C)[C@@H](C)CC)C(=O)N[C@@H](CS)C(=O)N[C@@H](CCCNC(=N)N)C(=O)O
MBC (AB5075, Mueller-Hinton broth with human serum; median, 40% human serum): 16 mg/L (≈ 7.59 µM)

CCn1c(-c2ccc(-c3ccc(F)cc3)cc2)c(-c2ccc(-c3ccc(F)cc3)cc2)n(CC)c1=[Se+][Au-][P+](CC)(CC)CC.[Cl-]
malondialdehyde content (carbapenem-resistant; 10, 20, 40 µM, 2 h; relative to: untreated): increased

CC(C)C[C@@H]1NC(=O)[C@H](CCCN)NC(=O)[C@H](C(C)C)NC(=O)[C@@H]2CCCN2C(=O)[C@H]2Cc3ccccc3CN2C(=O)[C@H](CC(C)C)NC(=O)[C@H](CCCN)NC(=O)[C@H](C(C)C)NC(=O)[C@@H]2CCCN2C(=O)[C@H]2Cc3ccccc3CN2C1=O
MIC50 (bacterial growth; ATCC 19606; 24 h, 37 °C): > 40 µM

Some of these lines once more:
Oc1ccc(C(F)(F)F)cc1-c1nc2c(Cl)cc(Cl)cc2[nH]1
MIC of colistin (colistin potentiator; AB 1E4, colistin-resistant; 5 µM): 1 mg/L
